Results of several laboratories.
A part holds a random share of what one study measured. Positions count from the first letter of the parent shown.

Block 1
Target: Sal-like protein 4, full length isoform A (SALL4, Homo sapiens, UniProt Q9UJQ4, residues 1-1053)
Sequence of UniProt Q9UJQ4 (whole entry, looked up): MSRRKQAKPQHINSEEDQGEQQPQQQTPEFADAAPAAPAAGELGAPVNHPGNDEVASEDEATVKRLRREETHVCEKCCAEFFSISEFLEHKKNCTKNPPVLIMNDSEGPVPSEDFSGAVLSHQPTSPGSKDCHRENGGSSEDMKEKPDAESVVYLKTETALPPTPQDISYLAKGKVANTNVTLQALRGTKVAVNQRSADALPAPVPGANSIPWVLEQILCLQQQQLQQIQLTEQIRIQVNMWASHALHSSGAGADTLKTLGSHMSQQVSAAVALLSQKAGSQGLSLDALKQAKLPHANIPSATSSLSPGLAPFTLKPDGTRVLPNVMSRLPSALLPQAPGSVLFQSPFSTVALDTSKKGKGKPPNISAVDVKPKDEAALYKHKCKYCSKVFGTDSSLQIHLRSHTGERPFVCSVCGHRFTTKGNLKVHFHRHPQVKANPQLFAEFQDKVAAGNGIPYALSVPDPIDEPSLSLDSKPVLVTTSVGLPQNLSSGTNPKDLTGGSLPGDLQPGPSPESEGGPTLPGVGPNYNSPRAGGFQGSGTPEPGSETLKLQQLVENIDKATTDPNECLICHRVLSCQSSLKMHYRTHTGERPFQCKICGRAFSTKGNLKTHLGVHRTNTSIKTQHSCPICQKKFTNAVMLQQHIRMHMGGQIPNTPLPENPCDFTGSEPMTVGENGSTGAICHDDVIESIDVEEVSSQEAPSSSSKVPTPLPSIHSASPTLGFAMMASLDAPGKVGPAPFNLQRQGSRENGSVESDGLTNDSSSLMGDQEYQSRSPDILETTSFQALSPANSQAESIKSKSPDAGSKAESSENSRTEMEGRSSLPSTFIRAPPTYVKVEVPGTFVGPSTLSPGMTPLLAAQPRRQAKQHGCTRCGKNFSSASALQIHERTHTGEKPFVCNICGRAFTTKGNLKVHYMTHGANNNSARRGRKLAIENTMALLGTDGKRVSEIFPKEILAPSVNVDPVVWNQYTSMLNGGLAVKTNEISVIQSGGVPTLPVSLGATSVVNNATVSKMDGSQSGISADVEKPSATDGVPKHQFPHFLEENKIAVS
Technique: universal PBM
Form: double-stranded DNA, one strand shown
Sample: in vitro
Tested at: 600 nM
Notes: 8-mer, flanks averaged, mean of replicates
Direction: higher = stronger binding
Quantity: E-score
AGCGGGCC: -0.352
AAAATACC: 0.183
ACACCCCT: -0.059
TCACCAGA: -0.127
CCACCTGC: -0.287
CTCCTTAA: 0.0215
AAAACATT: 0.281
ACCTGAAC: -0.0738
ACGTGCAG: -0.0441
GACTTCAA: 0.0709
CCTTTAAG: -0.0576
AGAGGGGA: -0.251
ATGTTTTG: 0.254
CTAACGAA: 0.138
AGAATATC: 0.169
GCTTAAAA: 0.089
ACAATTGA: 0.194
CGAAGACG: -0.271
CGCGGATC: -0.35

Block 2
Target: RING finger protein unkempt homolog, zinc fingers 1-6, GST-SBP tag (UNK, Homo sapiens, UniProt Q9C0B0, residues 30-357)
Sequence of UniProt Q9C0B0 (30-357, looked up): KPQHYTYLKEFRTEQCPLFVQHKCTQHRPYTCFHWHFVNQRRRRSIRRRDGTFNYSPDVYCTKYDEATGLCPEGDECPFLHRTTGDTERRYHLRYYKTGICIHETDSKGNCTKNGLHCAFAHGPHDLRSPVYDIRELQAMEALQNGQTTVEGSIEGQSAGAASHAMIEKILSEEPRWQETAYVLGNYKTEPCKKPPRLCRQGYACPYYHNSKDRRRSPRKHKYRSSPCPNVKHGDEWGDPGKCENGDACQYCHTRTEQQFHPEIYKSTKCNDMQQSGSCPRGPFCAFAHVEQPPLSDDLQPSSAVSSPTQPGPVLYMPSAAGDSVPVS
Technique: RNA Bind-n-Seq
Form: RNA
Sample: in vitro
Tested at: not given
Notes: RNA with constant flanks, human-mouse chimeric sites, ends assumed
Relative to: input RNA pool
Direction: higher = stronger binding
Quantity: bound/input enrichment
All sequences stand within: GGGAGUUCUACAGUCCGACGAUC … CAACAGAGGAUUGAGCAUCA
CCCCAAUACCAUUUGCAGGUCUGGAACUGCACUCUCUUUUUUAAAAAACAUGUAUACAUUUUAGGGCUGUAGACUUACUUUCCUAUUUUUGUUUUUCAUUGCUGACUUUUGAGCACAGAA: 1.38 ratio
UGUGCAUAUGAUGCUUGGAGAUGGUUUUGCAAAAGCAGAAAUCGCUGCAAGGUAAUCACAAUAGAUAAAAGUGGUAUUUUAAACCUUUGAAAGGAAUGGAUGUAACUGUACCUUGGUACA: 0.368 ratio
AAAGAAUGGAUAGAAUGUGCACACGGGAUCGGUGGGACCCGGGCGAAAAAGGAGUGCAAGAUAGAGUUCGAUGACUUCGAAGAGUGCUUGCUUCGGUACAAAACGAUGAGGCGAAUGCAU: 0.589 ratio
CUUAAUGUUAAUAUUUUUGAAUAAAUGAAGCUAAAAUGUCUGCUUUUGGUACAACACGCAUUAAUAAAAGGUUAAGUUUUGUUUUCCACUGAAGUACGUAAUACUUACUCAGAAAAAAAC: 0.279 ratio
GGCUGCUACUAUUCUCCGGGAGCCGUCUGGAGUUCCCGCCGGAGCGCGGCCAGACUAAUUUUAGAAAAUGCCAAGUAGGAAGUUUGUUGAGGGUGAAGUGGUCAGAGGCCGAUGGCCUGG: 2.58 ratio
ACCAUUUUCGCGGUUCAGGCUUUGUGUUGUAUUUACUUACGGUAUUAAAUUAUUAUUCUGCUUAGCUUAUAAUAAGGAUUACAAUUGUUAAAGAGGUUACUGAAUGUUACUCUGAAACUU: 0.542 ratio
GAUCCACAGUGGUCUGAGGAGCAACUCAUUGCUGCAAAAUUUUGCUUUGCUGGCCUUGUUAUAGGGCAGACUGAAGUGGACAUCAUGAGUCAUGCUACACAAGCUAUUUUUGAAAUUCUG: 0.129 ratio
UGUGCAUUAUGAUGCUUAGAUGGUUUUUGCAAAAGCAGAAAUCGCUGCAAGGUCAUUACAAUAGAUAAAAGUGGUAUUUUAAACCUUUGAAAUAAAUGGAUGUAACUGUACCUUGGUACA: 0.536 ratio
UGUAGUUUCUUGAUUUAUCAUUUUUCUCUUUUCUUUCUUUCCUUUAGGAAAAGCCUAAAGAUUAGGUUGUAAGAAAAACAGAAGCCAGCCAUGUUUCACCUGUGUUACAGGUAUUUCGUC: 0.255 ratio
AGAGCCCAGGAUGUUGAUGCUACAAACCCAAAUUACGAAAUUAUGUGUAUGAUCAGAGACUUCAGAGGAAGUUUGGAUUACAGACCCCUAACAACAGCAGAUCCUAUUGAUGAACAUAGG: 0.494 ratio
GAUCUCGGGCCCUCCCCAGGGGCCUCCUUUCGUAUAGUCACUGCUUCUGCUACGGAUACUUUCAGCUGCAACUCCCUACUGGGUGGGGCACCCAUUUCAGGCAGAAGGUUUUGGUACCCU: 0.128 ratio

Block 3
Target: CREB3L1, bZIP domain (human)
Technique: DHFR protein complementation
Sample: yeast
Notes: single substitutions, most at no-binding floor
Relative to: wild-type JUN-FOS pair
Direction: higher = stronger binding
Quantity: binding fitness
Starting sequence: JUN, bZIP domain (human); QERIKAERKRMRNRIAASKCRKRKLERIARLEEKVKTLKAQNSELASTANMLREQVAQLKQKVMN; partner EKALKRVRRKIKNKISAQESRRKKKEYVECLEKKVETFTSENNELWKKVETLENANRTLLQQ
N42K: -1.37 natural log
E32V: -1.4 natural log
L38T: -1.47 natural log
Q55D: -1.57 natural log
E44L: -1.46 natural log
Q41K: -1.53 natural log
N42C: -1.38 natural log
L59R: -1.57 natural log
M51W: -1.3 natural log
L45Y: -1.55 natural log
S43T: -1.31 natural log
Q55N: -1.54 natural log
E32K: -1.26 natural log
S47C: -1.37 natural log
M51Q: -1.46 natural log
S43Q: -1.33 natural log
K36W: -1.32 natural log
R53P: -1.48 natural log
K39V: -1.49 natural log

Block 4
Target: UBE2L6 UBC core domain (UniProt O14933)
Technique: yeast two-hybrid
Sample: yeast
Notes: mostly zero background
Relative to: not given
Direction: higher = stronger interaction
Quantity: lacZ reporter activity
B1: MID1 RING domain (UniProt O15344); chain METLESELTCPICLELFEDPLLLPCAHSLCFNCAHRILVSHCATNESVESITAFQCPTCRHVITLSQRGL
B2: RC3H2 RING domain (UniProt Q9HBD1); chain QAAQWTEFLSCPICYNEFDENVHKPISLGCSHTVCKTCLNKLHRKACPFDQTAINTDIDVL
B3: TRIM8 RING domain (UniProt Q9BZR9); chain WKNCFEEELICPICLHVFVEPVQLPCKHNFCRGCIGEAWAKDSGLVRCPECNQAYNQKPGLE
B4: ZNF598 RING domain (UniProt Q86UK7); chain AAAPERGGGSCVLCCGDLEATALGRCDHPVCYRCSTKMRVLCEQRYCAVCREELRQVVFGK
B5: RNF170 RING domain (UniProt Q96K19); chain TRQQFYTDMYCPICLHQASFPVETNCGHLFCGACIIAYWRYGSWLGAISCPICRQTVTLLLTVF
B6: ARK2C RING domain (UniProt Q6ZSG1); chain EGEESDTDEKCTICLSMLEDGEDVRRLPCMHLFHQLCVDQWLAMSKKCPICRVDIETQLGAD
B7: TRIM63 RING domain (UniProt Q969Q1); chain PMENLEKQLICPICLEMFTKPVVILPCQHNLCRKCANDIFQAANPYWTSRGSSVSMSGGRFRCPTCRHEVIMDRHGV
B8: IRF2BPL RING domain (UniProt Q9H1B7); chain SPMANSGPLCCTICHERLEDTHFVQCPSVPSHKFCFPCSRESIKAQGATGEVYCPSGEKCPLVGSNVP
Residues (chain): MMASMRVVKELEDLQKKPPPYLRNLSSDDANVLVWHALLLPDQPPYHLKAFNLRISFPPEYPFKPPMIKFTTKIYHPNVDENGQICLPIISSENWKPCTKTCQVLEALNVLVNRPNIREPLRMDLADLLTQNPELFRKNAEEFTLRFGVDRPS
YWAMDSTFELCKICAESNKDVKIEPCGHLLCSCCLAAWQHSDSQTCPFCRCEIKGWEAVS (CBLC RING domain (UniProt Q9ULV8)): 0
B1 (MID1 RING domain): 0
B2 (RC3H2 RING domain): 0
QHHELTSLFECPVCFDYVLPPILQCQAGHLVCNQCRQKLSCCPTCRGALTPSIRNL (SIAH2 RING domain (UniProt O43255)): 0
B3 (TRIM8 RING domain): 0
VTLSLTLPITCHICLGKVRQPVICINNHVFCSICIDLWLKNNSQCPACRVPITPENPCK (OBI1 RING domain (UniProt Q5W0B1)): 0
QLQDIKEQTMCPVCLDRLKNMIFLCGHGTCQLCGDRMSECPICRKAIERRILLY (MIB1 RING domain (UniProt Q86YT6)): 0
B4 (ZNF598 RING domain): 0
PEELQAMDNVCIICREEMVTGAKRLPCNHIFHTSCLRSWFQRQQTCPTCRMDVLRASLPA (SYVN1 RING domain (UniProt Q86TM6)): 0
KTLSRFGIQPCSICLGDAKDPVCLPCDHVHCLRCLRAWFASEQMICPYCLTALPDEFSPA (RNF213 RING domain (UniProt Q63HN8)): 0
RLTMMWEEVTCPICLDPFVEPVSIECGHSFCQECISQVGKGGGSVCPVCRQRFLLKNLRP (TRIM21 RING domain (UniProt P19474)): 0
B5 (RNF170 RING domain): 0
QLRRLQEERTCKVCMDKEVSVVFIPCGHLVVCQECAPSLRKCPICRGIIKGTVRTF (BIRC2 RING domain (UniProt Q13490)): 0
B6 (ARK2C RING domain): 0
EDEVSDNSAECVVCLSDVRDTLILPCRHLCLCNTCADTLRYQANNCPICRLPFRALLQIR (RNF157 RING domain (UniProt Q96PX1)): 0
B7 (TRIM63 RING domain): 0
B8 (IRF2BPL RING domain): 0

Block 5
Target: CCNE2, cyclin fold, Cln2 fusion (human)
Technique: yeast growth competition, sequencing
Sample: yeast
Notes: strong parent motif
Relative to: not given
Direction: higher = stronger binding
Quantity: normalised enrichment score
Starting sequence: WEE1 docking peptide (human); HKTFRKLRLFDTP; partner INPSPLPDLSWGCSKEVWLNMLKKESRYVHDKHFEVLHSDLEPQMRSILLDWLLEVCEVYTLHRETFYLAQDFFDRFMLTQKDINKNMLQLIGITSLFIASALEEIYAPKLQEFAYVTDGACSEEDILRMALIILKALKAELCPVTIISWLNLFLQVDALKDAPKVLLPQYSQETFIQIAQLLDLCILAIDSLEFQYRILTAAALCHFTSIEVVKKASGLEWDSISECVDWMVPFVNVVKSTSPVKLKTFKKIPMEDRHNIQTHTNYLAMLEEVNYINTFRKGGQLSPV
HKTFRKLRLFDHP [T12H]: 1.2
HKTFRCLRLFDTP [K6C]: 0.675
HKTFRKCRLFDTP [L7C]: 1.72
HKTFRKLRLFDTL [P13L]: 1.27
HKTFRKLRLFDTD [P13D]: 0.976
HKTFRKLRWFDTP [L9W]: 0.676
HKTFRKLRLFDMP [T12M]: 1.56
HWTFRKLRLFDTP [K2W]: 0.507
HKTFRKLRLVDTP [F10V]: -0.236
HKTFRKLRHFDTP [L9H]: 0.113
HETFRKLRLFDTP [K2E]: 0.956
HKTFRKLRRFDTP [L9R]: -0.0572
HKTFRKLRLQDTP [F10Q]: 0.01
HKTERKLRLFDTP [F4E]: 0.783
HKTFRKLRLFPTP [D11P]: 0.968
HKTFRKLRLFLTP [D11L]: 0.975

For quick reference, copied from above (block 2):
ACCAUUUUCGCGGUUCAGGCUUUGUGUUGUAUUUACUUACGGUAUUAAAUUAUUAUUCUGCUUAGCUUAUAAUAAGGAUUACAAUUGUUAAAGAGGUUACUGAAUGUUACUCUGAAACUU: 0.542 ratio
AGAGCCCAGGAUGUUGAUGCUACAAACCCAAAUUACGAAAUUAUGUGUAUGAUCAGAGACUUCAGAGGAAGUUUGGAUUACAGACCCCUAACAACAGCAGAUCCUAUUGAUGAACAUAGG: 0.494 ratio
AAAGAAUGGAUAGAAUGUGCACACGGGAUCGGUGGGACCCGGGCGAAAAAGGAGUGCAAGAUAGAGUUCGAUGACUUCGAAGAGUGCUUGCUUCGGUACAAAACGAUGAGGCGAAUGCAU: 0.589 ratio
GAUCUCGGGCCCUCCCCAGGGGCCUCCUUUCGUAUAGUCACUGCUUCUGCUACGGAUACUUUCAGCUGCAACUCCCUACUGGGUGGGGCACCCAUUUCAGGCAGAAGGUUUUGGUACCCU: 0.128 ratio
UGUGCAUAUGAUGCUUGGAGAUGGUUUUGCAAAAGCAGAAAUCGCUGCAAGGUAAUCACAAUAGAUAAAAGUGGUAUUUUAAACCUUUGAAAGGAAUGGAUGUAACUGUACCUUGGUACA: 0.368 ratio
CUUAAUGUUAAUAUUUUUGAAUAAAUGAAGCUAAAAUGUCUGCUUUUGGUACAACACGCAUUAAUAAAAGGUUAAGUUUUGUUUUCCACUGAAGUACGUAAUACUUACUCAGAAAAAAAC: 0.279 ratio
CCCCAAUACCAUUUGCAGGUCUGGAACUGCACUCUCUUUUUUAAAAAACAUGUAUACAUUUUAGGGCUGUAGACUUACUUUCCUAUUUUUGUUUUUCAUUGCUGACUUUUGAGCACAGAA: 1.38 ratio
UGUAGUUUCUUGAUUUAUCAUUUUUCUCUUUUCUUUCUUUCCUUUAGGAAAAGCCUAAAGAUUAGGUUGUAAGAAAAACAGAAGCCAGCCAUGUUUCACCUGUGUUACAGGUAUUUCGUC: 0.255 ratio
UGUGCAUUAUGAUGCUUAGAUGGUUUUUGCAAAAGCAGAAAUCGCUGCAAGGUCAUUACAAUAGAUAAAAGUGGUAUUUUAAACCUUUGAAAUAAAUGGAUGUAACUGUACCUUGGUACA: 0.536 ratio
GGCUGCUACUAUUCUCCGGGAGCCGUCUGGAGUUCCCGCCGGAGCGCGGCCAGACUAAUUUUAGAAAAUGCCAAGUAGGAAGUUUGUUGAGGGUGAAGUGGUCAGAGGCCGAUGGCCUGG: 2.58 ratio
GAUCCACAGUGGUCUGAGGAGCAACUCAUUGCUGCAAAAUUUUGCUUUGCUGGCCUUGUUAUAGGGCAGACUGAAGUGGACAUCAUGAGUCAUGCUACACAAGCUAUUUUUGAAAUUCUG: 0.129 ratio
